Assay results pooled from the literature.
Compare with care: the assays were run in different laboratories. Several values in a cell are separate wells, animals, samples, runs or records. Numbers after ± are the reported error.
Genome polyprotein NS2B-NS3 protease: Genome polyprotein, NS2B-NS3 protease (West Nile virus, UniProt P06935)
APP: Amyloid-beta precursor protein (APP, Homo sapiens, UniProt P05067)

`O=C(O[C@@H]1Cc2c(O)cc(O)cc2O[C@@H]1c1cc(O)c(=O)c2c(O)c(O)cc([C@H]3Oc4cc(O)cc(O)c4C[C@H]3OC(=O)c3cc(O)c(O)c(O)c3)c2c1)c1cc(O)c(O)c(O)c1`: inhibition “inhibited” (Protein disulfide-isomerase A6 (PDIA6, Homo sapiens, UniProt Q15084); di-eosin-GSSG reductase activity; 20 µM, 15 min).
`COc1ccc(N2C(=O)N(c3c(C)cccc3Cl)Cc3cnc(Nc4ccc(C5CCN(C)CC5)cc4OC)nc32)nc1` gave an inhibition of 5% (Serine/threonine-protein kinase LATS1 (LATS1, Homo sapiens, UniProt O95835); kinase activity; 0.5 µM).
The tissue uptake of `C[C@@H](O)[C@@H](CO)NC(=O)[C@@H](CCCNC(=N)N)NC(=O)[C@@H]1CCCN1C(=O)[C@@H]1CSSC[C@H](NC(=O)[C@H](Cc2ccccc2)NC(=O)CN2CCN(CC(=O)O)CCN(CC(=O)O)CCN(CC(=O)O)CC2)C(=O)N[C@@H](Cc2ccc(O)cc2)C(=O)N[C@@H](Cc2ccccc2)C(=O)N[C@@H](CCC(N)=O)C(=O)N[C@@H](CC(N)=O)C(=O)N1` [gallium-68 labelled] is reported as 0.06 %ID/g (healthy Wistar rat, liver; intravenous, 8 MBq, 120 min, individual animals).
With `O=C(Nc1cnccc1Cl)N1CCN(Cc2ccc3c(c2)OC(F)(F)O3)CC1` the inhibition was -4% (Tyrosine-protein kinase ZAP-70 (ZAP70, Homo sapiens, UniProt P43403); kinase activity, inhibitor; 10 µM, human, together with: poly(Glu,Tyr)).
For `CN1CCN(c2nc(N)c3ccccc3n2)CC1`, the inhibition was 6.6% (GABA-A receptor; GABA-A site (alpha1/beta2 interface), with gamma-2 subunit (Homo sapiens, UniProt P14867+P47870); binding, radioligand binding; 0.1 µM, mean of two).
The inhibition of `c1ccc(C(NCCNC(c2ccccc2)c2ccccc2)c2ccccc2)cc1` is reported as 14% (protein kinase C, rat; enzyme activity; 10 µM, Eurofins selectivity panel).
For `CC(C(=O)Nc1ccc2c(c1)B(O)OC2)c1cccc(Oc2ccccc2)c1` (stereo not drawn), the inhibition was ≤ 10% (Genome polyprotein NS2B-NS3 protease; enzyme activity, FRET; 50 µM, together with: substrate 50 µM).
Under “log2 fold change”, `Oc1ccc2c3c1O[C@H]1[C@@H](O)CC[C@@]4(O)[C@@H](C2)N(CC2CCC2)CC[C@]314` is recorded as 0.523 (ADGRG2 (Homo sapiens, UniProt Q8IZP9); β-arrestin recruitment, TANGO luminescence, item: GPR64; concentration not given; relative to: basal luminescence).
`Cc1ccc(S(=O)(=O)Oc2ccc3c(c2)Oc2nc4c(c(N)c2C3c2ccc(Cl)c(Cl)c2)CCCC4)cc1` (stereo not drawn) has an inhibition of 7.5% (APP; Aβ42 self-aggregation, inhibitor, thioflavin T fluorescence; 0.1 µM).
For `CC[C@H](C)[C@@H]1NC(=O)[C@@H]2CCCN2C(=O)[C@H](CC(C)C)NC(=O)[C@H](CC(C)C)NC(=O)CNC(=O)[C@@H](NC(=O)[C@@H](NC(=O)[C@H](CC(=O)O)NC(=O)CNC(=O)[C@@H](NC(=O)[C@H](C)NC(=O)CNC(=O)[C@H](CCCCN)NC(=O)[C@H](CC(C)C)NC(=O)[C@H](CC(C)C)NC(=O)[C@H](CCCCN)NC(=O)CNC(=O)[C@@H](NC(=O)[C@@H](N)CC(C)C)C(C)C)C(C)C)C(C)C)CSSC[C@@H](C(=O)O)NC1=O`, “log2 fold change” read -1.19 (RNA-seq, item: Apold1; mouse, traumatic brain injury model, frontal cortex and hippocampus; dose not given; relative to: TBI alone).
The inhibition of `O=C(Nc1ccc2c(c1)B(O)OC2)c1cccc(OCc2ccccc2)c1` is reported as 38 ± 9% (Genome polyprotein NS2B-NS3 protease; enzyme activity, FRET; 50 µM, together with: substrate 50 µM).
The inhibition of `C[S+](C)[O-]` is reported as ≥ 21% (Acetylcholinesterase (ache, Electrophorus electricus, UniProt O42275); enzyme activity, inhibitor, Ellman; concentration not given).
The tissue uptake of `CC(C)C[C@@H]1NC(=O)[C@H](CC(C)C)NC(=O)[C@H](Cc2c[nH]c3ccccc23)NC(=O)[C@H](CO)NC(=O)[C@H](Cc2c[nH]c3ccccc23)NC(=O)[C@@H]2CCCN2C(=O)[C@H](CC(C)C)NC(=O)[C@H](Cc2c[nH]cn2)NC(=O)[C@@H]2CCCN2C(=O)[C@H](CC(N)=O)NC(=O)[C@H](C)NC(=O)[C@H](Cc2ccc(O)cc2)NC(=O)[C@H](CS)NC(=O)[C@H](CCCCNC(=O)CN2CCN(CC(=O)O)CCN(CC(=O)O)CCN(CC(=O)O)CC2)NC1=O` [lutetium-177 labelled] is reported as 0.08 ± 0.05 %ID (Balb/c mouse, female, 4T1 tumour, heart; intravenous, 3.7 MBq, 4 h).
With `CN(C(=O)n1cnc(-c2ccc[n+]([O-])c2)c1)C1CCCCC1` the inhibition was -6% and 1% (ghrelin receptor; concentration not given).
For `CC[C@H](C)[C@H](NC(=O)[C@H](Cc1ccccc1)NC(=O)[C@H](CCC(=O)O)NC(=O)[C@H](CCCNC(=N)N)NC(=O)[C@H](C)NC(=O)[C@H](C)NC(=O)[C@H](CCC(N)=O)NC(=O)[C@H](CCC(=O)O)NC(=O)[C@H](CCC(=O)O)NC(=O)[C@H](CC(C)C)NC(=O)[C@H](Cc1ccc(O)cc1)NC(=O)[C@H](CO)NC(=O)[C@H](CO)NC(=O)[C@@H](NC(=O)[C@H](CC(=O)O)NC(=O)[C@H](CO)NC(=O)[C@@H](NC(=O)[C@H](Cc1ccccc1)NC(=O)[C@@H](NC(=O)CNC(=O)[C@H](CCC(=O)O)NC(=O)[C@H](C)NC(=O)CCc1c[nH]cn1)[C@@H](C)O)[C@@H](C)O)C(C)C)C(=O)N[C@@H](C)C(=O)N[C@@H](Cc1c[nH]c2ccccc12)C(=O)N[C@@H](CC(C)C)C(=O)N[C@H](C(=O)N[C@@H](CCCNC(=N)N)C(=O)NCC(=O)N[C@@H](CCCNC(=N)N)C(=O)N[C@@H](CCCCNC(=O)COCCOCCNC(=O)COCCOCCNC(=O)CC[C@H](NC(=O)CCCCCCCCCCCCCCCCC(=O)O)C(=O)O)C(=O)NCC(=O)NCC(=O)N[C@@H](CO)C(=O)N[C@@H](CCCCNc1c(NCCCCCN(O)C(=O)CCC(=O)NCCCCCN(O)C(=O)CCC(=O)NCCCCCN(O)C(C)=O)c(=O)c1=O)C(=O)O)C(C)C` [zirconium-89 labelled], the tissue uptake was 0.27 %ID/g (rat, intestine content; intravenous, 3 nmol/kg, 4 h).
For `O=C1c2ccccc2C(c2ccccc2F)C(=O)N1O` (stereo not drawn), the inhibition was 97% (Tripartite terminase subunit 3, C-terminal nuclease domain (Human betaherpesvirus 5, UniProt P16732); endonuclease activity, ELISA; 20 µM, together with: dsDNA).
`COc1cc(Nc2ncc(F)c(Nc3ccc4c(n3)NC(=O)C(C)(C)O4)n2)cc(OC)c1OC` gave an inhibition of 0% (Cyclin-dependent kinase 14 (CDK14, Homo sapiens, UniProt O94921); binding, KINOMEscan; 10 µM, PFTK1 kinase).
For `C[C@H]1CN(c2n[nH]c3nc(N[C@H]4CC[C@H](NS(=O)(=O)CCC(F)(F)F)CC4)ncc23)CCO1`, the remaining binding was 0.26 (Cyclin-dependent kinase 7 (CDK7, Homo sapiens, UniProt P50613); Kinobeads competition; HEK293, K562, placenta lysate; 20 µM, unit not given; relative to: vehicle).
With `Nc1ccc2c(c1)B(O)OC2` the inhibition was ≤ 10% (Genome polyprotein NS2B-NS3 protease; enzyme activity, FRET; 50 µM, together with: substrate 50 µM).
For `CC(C)[C@@H]1NC(=O)[C@H](Cc2ccccc2)NC(=O)[C@@H]2NC(=O)[C@H](Cc3ccccc3)NC(=O)[C@@H]3CCCN3C(=O)CNC(=O)[C@H](Cc3ccccc3)NC(=O)[C@@H]3CNCCCC[C@@H](C(=O)O)NC(=O)[C@@H]4NC(=O)[C@H](CC(N)=O)NC(=O)CNC(=O)[C@H]([C@@H](O)C(=O)O)NC(=O)[C@H](CSC[C@@H](NC(=O)[C@H](CCC(N)=O)NC(=O)[C@H](CCCCNC(=O)c5ccc(NN)nc5)NC(=O)[C@@H](N)CS[C@H]4C)C(=O)N[C@@H](CS[C@H]2C)C(=O)N3)NC1=O` [technetium-99m labelled], the tissue uptake was 0.13 ± 0.02 %ID/g (rat, saline control, skin; intravenous, 2 h after tracer, tracer 24 h after reperfusion).
`O=C(Nc1ccc2c(c1)B(O)OC2)c1cccc(OCc2ccccc2)n1` has an inhibition of 24 ± 2% (Genome polyprotein NS2B-NS3 protease; enzyme activity, FRET; 50 µM, together with: substrate 50 µM).
`CC(=O)N[C@H]1[C@H]([C@H](O)[C@H](O)CO)OC(C(=O)O)=C[C@@H]1N=[N+]=[N-]` gave an inhibition of 3 ± 1.3% (Sialidase A (nanA, Streptococcus pneumoniae, UniProt P62575); 8 µM, pH 6).
`COc1cc2c(Oc3ccc4[nH]c(C)cc4c3F)ccnc2cc1OCC1(N)CC1`: “gingival bleeding incidence” 0% (paediatric refractory sarcoma patients; 12 mg).
`O=C(c1ccc(Cl)cc1)N1CCN2C(=O)N(OC(=O)N3CCOc4ccccc43)C(=O)C2C1` (stereo not drawn): “mean protein ratio” 1.03 (Dipeptidyl peptidase 9 (DPP9, Homo sapiens, UniProt Q86TI2); MS-based ABPP; SW-620 conditioned medium; 10 µM, 1 h, 37 °C; relative to: compound over DMSO, lower = more inhibition).
`O=C(Nc1cccnn1)N1CCC(=Cc2cccc(Oc3ccc(C(F)(F)F)cn3)c2)CC1` has an inhibition of 68% (Mu-type opioid receptor (OPRM1, Homo sapiens, UniProt P35372); radioligand binding, inhibitor; 50 µM, human, together with: [3H]diprenorphine).
`CO[C@H]1/C=C/O[C@@]2(C)Oc3c(C)c(O)c4c(O)c(c(/C=N/N5CCN(C)CC5)c(O)c4c3C2=O)NC(=O)/C(C)=C\C=C\[C@H](C)[C@H](O)[C@@H](C)[C@@H](O)[C@@H](C)[C@H](OC(C)=O)[C@@H]1C` gave an inhibition of 61% (Glutathione S-transferase omega-1 (GSTO1, Homo sapiens, UniProt P78417); 5 µM).
`Nc1c2c(nc3c1C(c1cccc([N+](=O)[O-])c1)c1ccc(OCC(=O)c4ccc(Cl)cc4)cc1O3)CCCC2` (stereo not drawn) gave an inhibition of 87% (APP; Aβ42 self-aggregation, inhibitor, thioflavin T fluorescence; 100 µM).

Repeated from above:
`O=C(Nc1ccc2c(c1)B(O)OC2)c1cccc(OCc2ccccc2)n1` has an inhibition of 24 ± 2% (Genome polyprotein NS2B-NS3 protease; enzyme activity, FRET; 50 µM, together with: substrate 50 µM).
The inhibition of `c1ccc(C(NCCNC(c2ccccc2)c2ccccc2)c2ccccc2)cc1` is reported as 14% (protein kinase C, rat; enzyme activity; 10 µM, Eurofins selectivity panel).
